# Results gathered from unrelated publications.
# A part holds a random share of what one study measured. Positions count from the first letter of the parent shown.

# Series 1
# Target: Ras GTPase-activating protein-binding protein 1, C-terminal RGG region (G3BP1, Homo sapiens, UniProt Q13283)
# Chain of UniProt Q13283 (whole entry, looked up): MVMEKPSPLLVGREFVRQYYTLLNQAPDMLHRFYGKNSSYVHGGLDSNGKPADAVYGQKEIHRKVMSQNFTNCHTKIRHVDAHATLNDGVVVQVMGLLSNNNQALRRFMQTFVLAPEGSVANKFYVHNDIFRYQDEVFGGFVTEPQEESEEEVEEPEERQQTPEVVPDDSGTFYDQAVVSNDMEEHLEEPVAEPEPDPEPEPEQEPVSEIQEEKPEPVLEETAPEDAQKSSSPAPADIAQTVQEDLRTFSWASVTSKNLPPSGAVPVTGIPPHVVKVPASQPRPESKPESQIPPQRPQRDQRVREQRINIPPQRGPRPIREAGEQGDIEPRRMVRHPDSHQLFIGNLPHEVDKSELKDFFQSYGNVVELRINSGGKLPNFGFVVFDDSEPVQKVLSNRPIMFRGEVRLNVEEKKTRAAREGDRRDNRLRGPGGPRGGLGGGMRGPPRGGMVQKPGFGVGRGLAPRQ
# Method: RNA Bind-n-Seq
# Form: RNA
# Matrix: in vitro
# Concentration: 1 µM
# Setting: whole 134-nt RNA, ends assumed
# Added: 150 mM KCl
# Relative to: input library
# Reading: higher = stronger binding
# Constant ends, left off below: GGGAGUUCUACAGUCCGACGAUC … UGGAAUUCUCGGGUGUCAAGG
Oligonucleotide,log2 enrichment
UCCCCCCUAUUGGAAGUAAAGGGGAACAUAGAACUGAAGAGACCUCUGAUUAAGGCCCCUUCCCAGCUGCCUCUCUCAGGAAGCAGACUC,-1.71
GUCCUGUGCUACACAUCGUAUGUACCGAAUCGGCCCCCCGGGCCCCCCGGCCCCCCGGGAAAGUAUUAUGUUACGCCGUUCGGAUCUGCA,-1.23
CUGUGCUACACAUCGUAUGUACCGAAUCGGGCCCCCCCGGGCCCCCCCGGGCCCCCCCGGGAAAGUAUUAUGUUACGCCGUUCGGAUCUG,-1.93
AAGUCCUGUGCUACACAUCGUAUGUACCGAAUCAAAUUUAAAUUUAAACCCCCAAAAAAGUAUUAUGUUACGCCGUUCGGAUCUGCACUU,-0.926
UCCUCCCUGGCUUCAGCCAGUCCCUGACGCUGAGCACUGGCUUCCGAGUCAUCAAGAAGAAGCUGUACAGCUCGGAACAGCUGCUCAUUG,-1.3
CACAGACAACACGCACCCACACAGACACAGAGGGAAGGGGUUGGGAUGGGGACAGGGUGCACAGCAGCGCGGGGUAGGACCCCAGCCCCU,-0.287
GCAGGAAGUAAAAACAAAUGGAAAUGCUUCGGAUAGUGGCAGGGGUGGAAAUUGCUAAGGAAAGGGUGGGAUGGGAGUGGGUAAAGAGUU,1.59
AAGUCCUGUGCUACACAUCGUAUGUACCGAAUCGGGGCCCCGGCCCCGGCCCCGGGGAAAGUAUUAUGUUACGCCGUUCGGAUCUGCACU,-1.96
CAAGUCCUGUGCUACACAUCGUAUGUACCGAAUCGGCCCCGGCCCCGGCCCCGGGGAAAGUAUUAUGUUACGCCGUUCGGAUCUGCACUU,-2.6
GUCCUGUGCUACACAUCGUAUGUACCGAAUCAAAGUGUGUGUGUGUGUGUGUGUGAAAAAAGUAUUAUGUUACGCCGUUCGGAUCUGCAC,1.07
AGUCCUGUGCUACACAUCGUAUGUACCGAAUCGGGGUGGGGUGGGGAAAAAAAGGGGAAAGUAUUAUGUUACGCCGUUCGGAUCUGCACU,1.21
AAGUCCUGUGCUACACAUCGUAUGUACCGAAUCGGCCCCCGGCCCCCGGGCCCCCGGAAAGUAUUAUGUUACGCCGUUCGGAUCUGCACU,-1.28
AGUCCUGUGCUACACAUCGUAUGUACCGAAUCGGAAAAAGGAAAAAGGUUUUUUUGGAAAGUAUUAUGUUACGCCGUUCGGAUCUGCACU,-2.4
GCAGGAAGUAAAAACAAAUGGACAUGCUUCGGAUAGUGGCAGGGGUGGGGGUUGCUAAGGAAAGGGUGGGAUGGGAGUGGGUAAAGAGUU,2.57

# Series 2
# Target: PABPC1L2, full length, GST fusion (mouse, UniProt A0ABA7IW68)
# Method: RNAcompete
# Form: RNA
# Matrix: in vitro
# Concentration: 20 nM
# Setting: 7-mer, probes averaged, single round
# Relative to: mean of 7-mers
# Reading: higher = stronger binding
# Residues (chain): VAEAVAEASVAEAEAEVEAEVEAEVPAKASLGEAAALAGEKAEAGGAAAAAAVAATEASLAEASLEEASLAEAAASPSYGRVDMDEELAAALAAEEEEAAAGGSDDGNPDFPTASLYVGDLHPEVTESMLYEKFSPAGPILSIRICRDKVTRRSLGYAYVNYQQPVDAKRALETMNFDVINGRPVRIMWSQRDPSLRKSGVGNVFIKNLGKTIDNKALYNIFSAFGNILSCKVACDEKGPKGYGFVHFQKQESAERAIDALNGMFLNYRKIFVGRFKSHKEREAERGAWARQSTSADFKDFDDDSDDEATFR
Oligonucleotide,7-mer Z-score
CGGAAAA,5.06
UUCUAUU,-0.411
CACGGUC,-0.126
GCCCUAU,-0.318
AAAGUAU,1.17
GCCUCAA,-0.2
ACGCAAU,0.00798
CUACACG,-0.11
CCUGAAC,-0.228
CUGUUGA,-0.195
CCGCCCA,-0.431
GUAGUAA,0.0152
AUCGAGU,-0.012
GAUGAGU,-0.262
GCUAUCU,-0.238
UAAACGA,0.628
AGGAUCC,-0.219
CUGCGAU,-0.139
ACAUCAG,-0.112
AUCUCUG,-0.166
CAGAAUU,-0.17
AAGACAU,0.468
AGGGUGA,0.135
AAAAGGU,3.2
AGCACGA,0.00798

# Series 3
# Target: RNA binding protein fox-1 homolog 2, RRM domain, GST-SBP tag (RBFOX2, Homo sapiens, UniProt O43251-10, residues 100-194)
# Method: RNA Bind-n-Seq
# Form: RNA
# Matrix: in vitro
# Concentration: 365 nM
# Setting: natural RNA segment, single round, ends assumed
# Relative to: no-protein control
# Reading: higher = stronger binding
# Constant ends, left off below: GGGAGUUCUACAGUCCGACGAUC … UGGAAUUCUCGGGUGCCAA
# Target sequence (chain): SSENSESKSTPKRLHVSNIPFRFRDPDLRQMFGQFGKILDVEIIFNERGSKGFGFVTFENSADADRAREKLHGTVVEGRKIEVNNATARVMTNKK
Oligonucleotide,RBNS enrichment (R)
AAUUAGCACAUCUGUGGCUGAGGAGAAAUCCACCUGAAAAUGUGGGAGACCUUGACAGAGUGGUCAGCUGGAUCAGUGUGCCCUAAACUAAGUAAAAUCAUUGUUCCAUU,0.54
CACAGAGAAGGAGACGCACUUCUGGCGGCCACCAGCCAUCUGGGGCUCUUCUUCCUUUCUUCCCCCCGUGUAUGUAAAUGAAUUCCUGAACCCCAUACUUCACCUAAUGG,0.202
UUAAUUCUAGAUGUUUUAUCUCUCUGGGAGUAUAGUUUAUAGAAACACAAAGUACUUGAUUUCCUGUGUCGGCUCAGAUACAAGAAACACACACAACUGUUACCCUGACA,0.236
GUCUGAUUGUACCCUGGUGGCAUGAUCAGUUGUCUUGUAGCUGUCCCCCGCUCCAUAGUUUACAAUGCAAAUCUGUCUCAAGAUCUUCACUUCGCUGCUGCUGAGAGCAG,0.93
UUGAGUAUUAACCUUACAUUUUACCCGACUUAAGGAGGAAUAGUAGUGUAAGAGCUGCCCGGCUCCCUGGAGUAAAGCGCUACACGCAAGUUCCCAUAAAGCAAACAGGG,0.718
ACAGAUAACCUGUUGAGCUUGUGCCUUGAUUGUUUUAACAACUAGUGCAAAUCAACCUGAUGAUUUUAAUUGGCAGGGGAUAAUGGUAGCUUUCAAAUCAUUGGAAGGGG,0.454
UGUUGUUGACCAAAAUCACACACAUGGAAACAUGUAAUUCAACAGAGUGGGAAAGCUAGCAGAUUCUUGGCUUAGUAUUACUAAUAGGCAGGAUUGUACAAUGAGCAACU,0.154
UUCCUGCUUUUUACUGGGGACUCCAGAUUUUCCCCAAACUUGCUUCUGUUGAGAUUUUUCCCUCACCUUGCCUCUCAGGCACAAUAAAUAUAGUUAUACCACUGCCCAUC,1.07
AAAUCAGCAUUCAUUUUAAGAAAAGCAACUUUAGUUUCAAAGAUACUUUUAAGCUUCUAAAUUGAUCAUUUAAACUAUUUCUUUAAAUAAGAGAGCCAAAUUAGAGGCUC,2.18
ACACUUAAUUUUCUAUUGUAAAAAGUAAUAAUAUACAGAGUCUAACAGAAGGUCCUGUUGGGUUUGUUGUUUUUGAGGCUGCCGAAUGGUUUUGGAAUGCAGGGUCAGCC,3.44
UCCACUUCUACCGCCUGUGUGACUGGCUGCCCUCCUGAGGCAGCACCACACCAGGGACCAGGGGUGCCCAGGCACCCCCCAACACUGGAUGCAAUGGUGUUACACUGGAG,0.539
AUGAGCCCCUCAUUUGCACACAGUGACCACAUGAGCUUCCACUUACCUAACAACAGCCAUUUCAGGCCCUCAAUAGUGCUUGCUUCAUCUUAGCCUGGCCCAGCCUGGGC,0.488

# Series 4
# Target: Sal-like protein 4, full length isoform A (SALL4, Homo sapiens, UniProt Q9UJQ4, residues 1-1053)
# Chain of UniProt Q9UJQ4 (whole entry, looked up): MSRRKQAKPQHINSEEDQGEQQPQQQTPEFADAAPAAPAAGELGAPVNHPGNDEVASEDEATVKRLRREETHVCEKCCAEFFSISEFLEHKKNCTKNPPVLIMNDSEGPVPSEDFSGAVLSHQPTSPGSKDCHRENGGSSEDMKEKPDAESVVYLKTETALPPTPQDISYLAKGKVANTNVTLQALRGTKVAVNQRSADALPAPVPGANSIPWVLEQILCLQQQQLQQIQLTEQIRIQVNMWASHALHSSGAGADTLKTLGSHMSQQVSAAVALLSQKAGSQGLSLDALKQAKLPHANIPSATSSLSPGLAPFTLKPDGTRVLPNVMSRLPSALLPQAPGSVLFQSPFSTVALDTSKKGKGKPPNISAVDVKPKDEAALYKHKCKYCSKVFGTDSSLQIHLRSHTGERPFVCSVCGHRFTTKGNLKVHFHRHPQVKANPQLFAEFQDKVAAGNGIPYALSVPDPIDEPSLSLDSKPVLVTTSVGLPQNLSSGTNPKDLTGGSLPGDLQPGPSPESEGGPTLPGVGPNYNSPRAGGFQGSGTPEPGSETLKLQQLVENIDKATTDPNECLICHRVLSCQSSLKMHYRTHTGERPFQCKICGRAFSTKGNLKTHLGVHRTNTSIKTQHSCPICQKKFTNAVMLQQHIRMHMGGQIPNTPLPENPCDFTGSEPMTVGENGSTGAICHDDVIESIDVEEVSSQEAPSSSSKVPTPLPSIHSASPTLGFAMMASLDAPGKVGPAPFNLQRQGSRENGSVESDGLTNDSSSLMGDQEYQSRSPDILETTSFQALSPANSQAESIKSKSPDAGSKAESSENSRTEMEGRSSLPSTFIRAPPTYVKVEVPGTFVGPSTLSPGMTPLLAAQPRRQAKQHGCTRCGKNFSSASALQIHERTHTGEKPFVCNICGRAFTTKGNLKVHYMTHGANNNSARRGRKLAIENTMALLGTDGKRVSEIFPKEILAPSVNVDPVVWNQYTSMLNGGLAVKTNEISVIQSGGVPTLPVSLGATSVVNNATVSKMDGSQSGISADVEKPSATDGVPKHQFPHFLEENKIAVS
# Method: universal PBM
# Form: double-stranded DNA, one strand shown
# Matrix: in vitro
# Concentration: 600 nM
# Setting: 8-mer, flanks averaged, mean of replicates
# Reading: higher = stronger binding
Oligonucleotide,E-score
CCAGCAGC,-0.287
AGGGACTA,-0.0486
ATACCCTG,-0.0807
ATTTAGTA,0.351
GCGGAAGA,-0.0423
ATAATCGC,0.233
CGCCCAAC,-0.232
AATTTGGT,0.196
CCATGGGA,-0.197
CTCAACCA,0.0161
CACTGCCA,-0.065
AGCGTCAG,-0.0843
AACAGCAT,0.0724
ACGCACGA,0.00886
AGTGGAGA,-0.0255
ACCTCATC,-0.136
CGTAGGGA,-0.0122
CGAACAGC,-0.265
ACGGATAG,-0.1
ACCTCGAA,0.0426
ATACGCGA,0.00377
GATTGAGA,0.193
AGTATCGA,0.193
ACTTGGCA,-0.0518
CGTCTGGA,-0.218

# Series 5
# Target: CRIPT, C-terminal peptide
# Method: DHFR complementation, deep sequencing
# Matrix: yeast
# Setting: single substitutions, model-inferred values
# Relative to: wild type
# Reading: higher = weaker binding
# Starting sequence: ERBIN, PDZ domain 1 (human); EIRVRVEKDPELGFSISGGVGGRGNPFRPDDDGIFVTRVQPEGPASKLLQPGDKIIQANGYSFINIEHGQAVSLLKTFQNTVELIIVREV; partner TKNYKQTSV
Change,binding free energy change [kcal/mol]
V90Y,-0.0528
S73Y,0.0271
G13P,1.56
N80A,-0.00909
V90F,-0.0372
I55L,-0.0947
D32E,0.0679
G69M,-0.0828
F63D,0.863
I86V,-0.0754
A45P,0.837
P41Y,0.32
D9C,-0.105
V90W,-0.0868
I85E,-0.00324
V20I,0.0192
L12P,1.1

# Series 6
# Target: Histone acetyltransferase KAT6A, both winged helices, GST fusion (KAT6A, Homo sapiens, UniProt Q92794, residues 1-181)
# Method: protein binding microarray
# Form: double-stranded DNA, one strand shown
# Matrix: in vitro
# Concentration: not given
# Setting: 8-mer, flanks averaged, mean of 2 arrays, mostly near background
# Relative to: not given
# Reading: higher = stronger binding
# Target sequence (chain): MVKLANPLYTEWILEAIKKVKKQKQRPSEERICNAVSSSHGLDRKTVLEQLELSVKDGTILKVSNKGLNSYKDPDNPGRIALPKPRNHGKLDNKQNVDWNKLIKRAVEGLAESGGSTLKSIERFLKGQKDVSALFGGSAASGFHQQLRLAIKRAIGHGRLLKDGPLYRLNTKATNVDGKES
Oligonucleotide,E-score
AAATGTAG,-0.168
AGTCAGGC,-0.075
ACTAGGGA,-0.0592
ACACACTC,-0.168
ATCTAACA,-0.185
ACTACAGT,-0.146
CCCCGTCC,0.172
AGAGGAGA,-0.125
CAACCACA,-0.0454
AAAGTTTC,-0.0361
CTAGTGTC,-0.0566
ACTAAGCG,0.144
AAAAAATC,-0.0163
CTAAGTTA,-0.0726
CGTCGAAG,0.124
TACTTGAA,-0.155
ATCAGGAG,-0.193
ACTGGCGA,-0.097
AACGTTAC,0.0838
ATCATGCC,-0.0536
AGGCTACG,-0.0686
CCGTCTGA,0.197
CCCTACAA,-0.213
CGAATGTA,0.0174

# Other studies, line by line
Molecule,target,test,system,conditions,how to read,measurement,value
"PhoQ, residues 284 288 289 292 302 303 SVHLDV","PhoP, residues 12 14 15 18 19 QYCSL (Escherichia coli, UniProt P23836)","Sort-seq, refers to: YFP reporter",E. coli,"PhoQ-PhoP variant library, added: 10 µM Mg2+","relative to: high Mg2+ state, higher = stronger signaling",fold induction,5.86

# Excerpt of the above (series 2):
Oligonucleotide,7-mer Z-score
AAAGUAU,1.17
GCUAUCU,-0.238
CUGUUGA,-0.195
CCGCCCA,-0.431
ACGCAAU,0.00798
ACAUCAG,-0.112
AGGGUGA,0.135
AGCACGA,0.00798
CGGAAAA,5.06
GAUGAGU,-0.262
AAGACAU,0.468
